# Assay results pooled from the literature.
# Parts stem from different laboratories: compare values within a part only.

# Sample 1
# Target: Histone acetyltransferase KAT6A, winged helix 2, GST fusion (KAT6A, Homo sapiens, UniProt Q92794, residues 85-181)
# Method: protein binding microarray
# Molecule type: double-stranded DNA, one strand shown
# Sample: in vitro
# Tested at: not given
# Notes: 8-mer, flanks averaged, mean of 2 arrays, mostly near background
# Baseline: not given
# Direction: higher = stronger binding
# Construct (chain): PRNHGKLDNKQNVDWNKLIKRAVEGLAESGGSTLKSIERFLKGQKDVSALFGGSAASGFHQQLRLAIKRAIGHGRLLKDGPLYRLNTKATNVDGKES
Strand,E-score
GGCAAGCC,0.0112
CCGCTGGA,0.209
ATCCACAC,-0.0204
CTCATGGA,-0.159
TCGACTCA,-0.0478
AATGCGAG,0.103
CACAGACA,0.0954
CTATGCAC,-0.058
AACCAAAA,0.121
GAAGATTA,-0.0156
ATACTAGG,-0.0563
CTACAGAG,0.044
AGGATACG,-0.102
GCCGGACC,0.0936
CATCCCCG,0.0965
GTTGACTA,-0.215
ATACGGGC,-0.159
GGATGGCC,0.116
GGTACCAA,-0.0809
GCGCTCCC,0.0887

# Sample 2
# Target: Ras GTPase-activating protein-binding protein 1, C-terminal RGG region (G3BP1, Homo sapiens, UniProt Q13283)
# UniProt Q13283, sequence (whole entry, looked up): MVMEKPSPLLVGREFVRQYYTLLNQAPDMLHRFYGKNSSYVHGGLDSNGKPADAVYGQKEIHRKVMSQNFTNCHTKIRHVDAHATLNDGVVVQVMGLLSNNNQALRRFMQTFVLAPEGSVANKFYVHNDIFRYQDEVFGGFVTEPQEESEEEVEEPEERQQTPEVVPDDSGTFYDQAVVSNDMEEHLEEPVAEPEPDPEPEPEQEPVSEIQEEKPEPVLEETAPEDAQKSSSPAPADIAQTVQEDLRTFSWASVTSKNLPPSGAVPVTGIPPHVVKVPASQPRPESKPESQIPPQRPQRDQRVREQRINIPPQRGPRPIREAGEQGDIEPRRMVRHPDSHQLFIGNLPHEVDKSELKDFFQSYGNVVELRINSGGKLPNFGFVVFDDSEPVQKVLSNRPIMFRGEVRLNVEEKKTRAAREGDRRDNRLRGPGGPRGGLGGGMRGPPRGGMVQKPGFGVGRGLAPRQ
# Method: RNA Bind-n-Seq
# Molecule type: RNA
# Sample: in vitro
# Tested at: 1 µM
# Notes: whole 134-nt RNA, ends assumed
# Added: 150 mM KCl
# Baseline: input library
# Direction: higher = stronger binding
Strand,log2 enrichment
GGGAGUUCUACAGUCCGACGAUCGUCCUGUGCUACACAUCGUAUGUACCGAAUCAAACCCAAACCCCCAAAUUUUUUUAAAAAAGUAUUAUGUUACGCCGUUCGGAUCUGCACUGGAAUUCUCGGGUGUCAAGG,-0.939
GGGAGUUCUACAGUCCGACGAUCUCAAGUCCUGUGCUACACAUCGUAUGUACCGAAUCGGAGGUUUGGAAAAAAAGGAAAGUAUUAUGUUACGCCGUUCGGAUCUGCACUUCCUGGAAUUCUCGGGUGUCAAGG,-1.51
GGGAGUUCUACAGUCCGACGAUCUGGCUUUCACCCCCAACCAGUGACCAAAGACUUGACCACUCAAAGUCCAGCUCCCCAGAACACUGCUCGACAUGGACACCGGUGUGAUUGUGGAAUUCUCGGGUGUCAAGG,0.0231
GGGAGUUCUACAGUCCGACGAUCUCCUCAAGUCCUGUGCUACACAUCGUAUGUACCGAAUCGGGGCGGGCGGCGGAAAGUAUUAUGUUACGCCGUUCGGAUCUGCACUUCCAGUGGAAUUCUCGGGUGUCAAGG,-0.984
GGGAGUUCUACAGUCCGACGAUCUGUGCUACACAUCGUAUGUACCGAAUCGGGGUUUUUUUGGGGUUUUUGGGGAAAAAAAGGGGAAAGUAUUAUGUUACGCCGUUCGGAUCUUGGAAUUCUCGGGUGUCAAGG,0.0932
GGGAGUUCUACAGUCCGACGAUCUCAAGUCCUGUGCUACACAUCGUAUGUACCGAAUCGGGAGGGAAAAAGGGUGGGAAAGUAUUAUGUUACGCCGUUCGGAUCUGCACUUCCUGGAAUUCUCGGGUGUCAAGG,1.57
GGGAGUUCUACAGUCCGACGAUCAAGUCCUGUGCUACACAUCGUAUGUACCGAAUCGGGGAAAGGGGAAAGGGGAAAGGGAAAGUAUUAUGUUACGCCGUUCGGAUCUGCACUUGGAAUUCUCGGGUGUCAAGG,0.961
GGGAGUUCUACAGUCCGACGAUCUGUCAUGGAUUCAAGUUAUUAAAAGCAUAAGUUUGGAAGACAGGCUUGCCGAAAUUGAGGACAUGAUUAAAAUUGCAGUGAAGUUUGAAAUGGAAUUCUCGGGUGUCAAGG,-2.57
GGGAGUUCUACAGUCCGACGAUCUGGCUUCCUUCUUUCUAUUCCCCGCCUGCCUUCCAUGGUAGAGGCCAGUGACUUUGAGAUUAAUGGACUGGACUUCAUGGUAAGACCCUCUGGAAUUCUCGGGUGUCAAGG,0.00431
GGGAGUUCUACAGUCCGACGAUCCUCAAGUCCUGUGCUACACAUCGUAUGUACCGAAUCGGGAAGGGAAGGGAAGGAAAGUAUUAUGUUACGCCGUUCGGAUCUGCACUUCCAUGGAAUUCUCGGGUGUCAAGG,-0.781

# Sample 3
# Target: Interferon regulatory factor 7, full length, phosphomimetic (IRF7, Homo sapiens, UniProt Q92985, residues 1-503, S471D/S472D/S475D/S476D/S477D/S483D/S484D/S487D)
# UniProt Q92985, sequence (whole entry, unmodified, looked up): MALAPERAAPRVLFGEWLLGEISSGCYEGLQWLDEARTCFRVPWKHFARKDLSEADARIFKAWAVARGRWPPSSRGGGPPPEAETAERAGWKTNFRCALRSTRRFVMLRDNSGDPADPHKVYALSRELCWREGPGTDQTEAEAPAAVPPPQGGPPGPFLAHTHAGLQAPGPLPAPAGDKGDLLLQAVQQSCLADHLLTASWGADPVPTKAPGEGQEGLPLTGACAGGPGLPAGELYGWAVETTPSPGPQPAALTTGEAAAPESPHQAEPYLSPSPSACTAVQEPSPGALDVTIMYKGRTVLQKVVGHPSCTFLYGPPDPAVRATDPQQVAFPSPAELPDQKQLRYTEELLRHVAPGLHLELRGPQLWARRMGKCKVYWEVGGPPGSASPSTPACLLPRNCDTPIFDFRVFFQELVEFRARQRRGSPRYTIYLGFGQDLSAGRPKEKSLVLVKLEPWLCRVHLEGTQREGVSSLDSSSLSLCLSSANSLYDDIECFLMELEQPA
# Method: protein-binding microarray
# Molecule type: double-stranded DNA, one strand shown
# Sample: in vitro
# Tested at: 2200 nM top
# Notes: 60-bp whole probe
# Added: salmon DNA 0.4 mg/ml
# Baseline: random background probes
# Direction: higher = stronger binding
# Shared flanks, not repeated: GCCTAGCAC … GTCTTGATTCGCTTGACGCTGCTG
Strand,fitted relative affinity [z-score]
GACGGTTTCGATATCGGGACGTGCTAG,7.07
TTAGGTTTCAGACTGGATTAGTGCTAG,0.591
TCATACTTCCCACTGGTACTGTGCTAG,1.86
TTAGGACTGGACTTTCAGTTAGTGCTA,0.34
GACTGTATCCTTATCCTGACGTGCTAG,1.56
GACGGTCTCGGTTTGGGGACGTGCTAG,1.9
TTAGAACTGAGTTTCAATTAGTGCTAG,-0.102
GACTATTTCAGACTGGAGACGTGCTAG,0.498
TTAGATTTCGGTATCGGTTAGTGCTAG,4.25
TTAGATTCCAGTTTCGAATAGTGCTAG,3.19
TTAGATTTCAGTTTCGTTTAGTGCTAG,8.76
GGGCATTTGGTTAGCGTATAGTGCTAG,-0.369
GACGGTTTCGGTATGGGGACGTGCTAG,8.32
TCAATTTTTGCTTACGAACTGTGCTAG,1
TTACGACTGCTACTGCTTTAGTGCTAG,0.66
TTAGATCTCAGTCTCGAATAGTGCTAG,0.136
GACGATATCGGGTATCGAAACGTGCTA,0.513
TTAGATATCAGTTTCGAGTAGTGCTAG,3.57
TCAGGTTTTACTTTCTAACTGTGCTAG,2.78
CAAAAATGATTGGTTGAACAGTGCTAG,-0.359
GACAAACTGAGACTGGAGACGTGCTAG,-0.277
TTAGATTTCGGGAATGGATTAGTGCTA,0.432
TCATCACTTTCTTTAACACTGTGCTAG,1.55
GACGGTATCGCTCTCGGGACGTGCTAG,0.224
ACTAGCTTCCATTTTCTGAAGTGCTAG,2.03

# Sample 4
# Target: Sal-like protein 4, full length isoform B (SALL4, Homo sapiens, UniProt Q9UJQ4-2, residues 1-616)
# Method: universal PBM
# Molecule type: double-stranded DNA, one strand shown
# Sample: in vitro
# Tested at: not given
# Notes: 8-mer, flanks averaged, mean of replicates
# Direction: higher = stronger binding
# Construct (chain): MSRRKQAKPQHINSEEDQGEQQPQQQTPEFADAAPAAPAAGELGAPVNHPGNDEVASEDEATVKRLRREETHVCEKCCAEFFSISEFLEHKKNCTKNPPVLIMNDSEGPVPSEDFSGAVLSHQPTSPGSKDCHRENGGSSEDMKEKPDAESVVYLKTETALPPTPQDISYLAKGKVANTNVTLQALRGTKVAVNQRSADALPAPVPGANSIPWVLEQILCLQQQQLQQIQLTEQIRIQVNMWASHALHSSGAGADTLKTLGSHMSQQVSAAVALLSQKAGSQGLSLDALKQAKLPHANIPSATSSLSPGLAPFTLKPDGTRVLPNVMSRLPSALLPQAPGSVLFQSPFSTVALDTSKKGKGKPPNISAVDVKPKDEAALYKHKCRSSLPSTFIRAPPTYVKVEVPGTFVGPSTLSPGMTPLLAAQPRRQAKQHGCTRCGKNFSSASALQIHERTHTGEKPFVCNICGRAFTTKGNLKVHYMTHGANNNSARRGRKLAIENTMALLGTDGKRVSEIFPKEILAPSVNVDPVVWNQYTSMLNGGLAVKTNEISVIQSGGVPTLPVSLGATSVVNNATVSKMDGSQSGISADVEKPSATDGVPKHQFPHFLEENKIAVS
Strand,E-score
AACAGTTC,0.147
GCGGAATA,0.0921
CATTCCCG,-0.0495
CAGAAGTC,-0.138
ATACTGAT,0.259
GTCCAAAC,-0.174
ATGGGATG,-0.106
GAGTGTAA,0.0628
TATTTGGA,0.152
ACGGCTCT,-0.147
GTCGCTCA,-0.135
CCCACGAA,-0.136
CCACACGC,-0.207
GTTATCCA,0.118
AGCGAGGC,-0.248
CCTAAACA,0.0539
ACATTTAG,0.224
CACAAGGG,-0.31
GCGTAATA,0.294
GTTGCTTA,0.0673
AAGTCGGG,-0.112
AAGTTTGG,0.126
CTTCTTGC,-0.0708

# Sample 5
# Target: PABPC1L2, full length, GST fusion (mouse, UniProt A0ABA7IW68)
# Method: RNAcompete
# Molecule type: RNA
# Sample: in vitro
# Tested at: 20 nM
# Notes: 7-mer, probes averaged, single round
# Baseline: mean of 7-mers
# Direction: higher = stronger binding
# Construct (chain): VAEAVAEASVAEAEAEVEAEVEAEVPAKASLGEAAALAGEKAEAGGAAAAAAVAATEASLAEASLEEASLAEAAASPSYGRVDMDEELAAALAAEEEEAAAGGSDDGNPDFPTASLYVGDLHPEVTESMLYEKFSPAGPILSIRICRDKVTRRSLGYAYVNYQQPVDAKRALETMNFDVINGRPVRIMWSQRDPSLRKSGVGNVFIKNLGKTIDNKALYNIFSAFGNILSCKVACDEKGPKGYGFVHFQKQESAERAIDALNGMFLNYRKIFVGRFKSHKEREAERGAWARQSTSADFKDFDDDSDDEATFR
Strand,7-mer Z-score
CCGGGCA,0.122
AUGCUUU,-0.141
UUUGAAU,-0.231
CCAGGUC,-0.269
CUUAAAA,2.58
UCGACGG,-0.0808
CAAGGUC,-0.161
UUUGGCG,-0.295
UUUAGGU,0.0388
CGUGGGA,0.202
UACAGCG,0.017
GAUCACA,-0.22
GUCACGG,-0.021
ACGCUAC,-0.0971
GAGGUUA,-0.0101
CAAACGU,0.162
AAUACAC,0.254

# Excerpt of the above (sample 5):
Strand,7-mer Z-score
ACGCUAC,-0.0971
AAUACAC,0.254
CCAGGUC,-0.269
GAUCACA,-0.22
CAAGGUC,-0.161
AUGCUUU,-0.141
CGUGGGA,0.202
CUUAAAA,2.58
UUUGGCG,-0.295
CAAACGU,0.162
GUCACGG,-0.021
GAGGUUA,-0.0101
UUUGAAU,-0.231
